# Assay results pooled from the literature.
# Each line is one published result; not all experiments were run side by side. Values joined by “and” are separate records of one study, mostly repeats; a detail may differ. ± gives the spread as reported.
SMILES,tested on,assay,system,setting,how to read,quantity,value
COc1cc(-c2nc3ccccc3s2)cc(CN2Cc3cccc(n3)CN(C)Cc3cccc(n3)C2)c1O,,"UV-vis spectrophotometric titration, refers to: HL/L- equilibrium",MeOH/water with NaCl,"50 µM, room temperature, NaCl 0.1 M, MeOH ≤20% v/v",,pKa4,9.6
CC1=C(/C=C/C(=O)N2CCN(C(N)=O)CC2)C(C)(C)CCC1,,,"female mouse, plasma","oral, 20 mg/kg, single dose",,half-life,0.556 h
CCCCCCCCCCCCCCCCCC(=O)Nc1ccn(C2OC(CO)C(O)C2(F)F)c(=O)n1 (stereo not shown),,,"athymic nude mouse, female, BxPC-3 xenograft, plasma","intravenous, 25 mg/kg gemcitabine equivalent",,Vss,0.387 ± 0.0323 L/kg
Nc1nc2cnc(C(=O)N3CCOC[C@@H]3c3ccc(C(F)(F)F)cc3)cc2c2c1COC2,,,human,"oral, 1200 mg once daily",,tolerability,not toxic
C=CC(=O)Nc1cc(Nc2nccc(-c3cn(C4CC4)c4ccccc34)n2)c(OC)cc1NC,,radio-HPLC,"human male, feces","oral, 110 mg, 48 to 96 h, sample holds 20.06% dose",reference: sample radioactivity,share of radioactivity,0.83%
COc1cc(NC(C)=O)c2c(c1O)-c1c(OC)c(OC)cc3c1C(C2)N(C)CC3 (stereo not shown),,,"Wistar rat male, plasma","oral, 200 mg/kg, two-compartment model",,A coefficient,76.9 ± 53.9
CCCC(CCC)NC(=O)c1ccc(O)c(O)c1,,LC-MS extracted ion chromatogram,"Sprague-Dawley rat, male and female, pooled plasma","oral, 200 mg/kg, 1 h",,peak area,653000 cps
COCCOCCOCCOCCC(=O)NCc1cc(CNC(=O)CCOCCOCCOCCOC)cc(-c2cc3cc4nc(c(-c5ccc(CCC(=O)O)cc5)c5[nH]c(cc6nc(c(OC)c2[nH]3)CC6(C)C)cc5-c2cc(CNC(=O)CCOCCOCCOCCOC)cc(CNC(=O)CCOCCOCCOCCOC)c2)CC4(C)C)c1,,,DMF,room temperature,,Qy emission FWHM,25 nm
CCCC[C@H](NC(=O)[C@H](CC(C)C)N(C)C(=O)CNC(=O)[C@@H](NC(=O)[C@H](Cc1ccccc1)NC(=O)[C@H](CCCCN)NC(=O)[C@@H](N)CC(=O)O)C(C)C)C(N)=O,,,anaesthetised Sinclair minipigs,"IV, 0.3 µg/kg",reference: baseline,heart rate change,4.2 ± 5.16%
CC(C)Cn1c(SCC(=O)N2CCc3ccccc3C2)nc2cc(Cl)ccc2c1=O,,,"mouse C57BL/6J male, plasma","intraperitoneal, 10 mg/kg",reference: plasma Cmax over CRFBP-CRF2 IC50,Cmax over IC50,1.7 fold
CCCCCCCCCCCCCCCC(=O)N[C@@H](CCCCN)C(=O)N[C@@H](CCCCN)C(=O)N[C@@H](CO)C(=O)N[C@@H](CCCNC(=N)N)C(=O)N[C@@H](C)C(=O)N[C@@H](CC(C)C)C(=O)N[C@@H](Cc1ccccc1)C(N)=O,,,"cynomolgus monkey, male","30 mg/kg, day 1",,activated partial thromboplastin time,30.9 ± 5.7 s
COc1ccc2cc(-c3ccc(-c4ccc(C)cn4)nc3)oc2c1,,TCSPC,DMSO,,,fluorescence lifetime,1.8 ns
"CNC(=O)N[C@]1(C)CCC[C@@]2(C)C3CC[C@@]4(C)C[C@]3(CCC21)CC4=O (single isomer, unassigned)",,,processed rat plasma,"1.5 ng/mL, 24 h, room temperature, autosampler stability",,measured concentration,1.61 ± 0.15 ng/mL
COc1cc(N(C)CCN(C)C)c(NC(=O)CCSCC(NC(C)=O)C(=O)O)cc1Nc1nccc(-c2cn(C3CC3)c3ccccc23)n1 (stereo not shown),,radio-HPLC,"human, feces","dose not given, 48 to 96 h, sample holds 20.06% dose",reference: sample radioactivity,share of radioactivity,3.05%
NCC(=O)N1CCC[C@H]1C(=O)N1C[C@H](O)C[C@H]1C(=O)O,,potentiometric titration,water,"37 °C, 0.15 mol/dm3 NaCl",,pKa3,7.25
COCCOCCOCCOCCOCCOCCOCCOCCC(=O)NCCCc1cc2cc3nc(cc4[nH]c(cc5nc(c(OC)c1[nH]2)C(=O)C5(C)C)cc4CCc1ccc(C(=O)O)cc1)CC3(C)C,,,water with 5% DMF,room temperature,,Qy emission maximum,679 nm
COC(=O)c1ccc(/C=N/NS(=O)(=O)c2ccc(OC)c(OC)c2)cc1,,,buffer,"concentration not given, time not given, pH 2, 37 °C",,hydrolysis,~40%
COc1cc(CNC(=O)C[C@H](C)CCC=C(C)C)ccc1OCc1cn(-c2ccc(Cl)c(Cl)c2)nn1,HCC 2998,SRB,,"10 µM, 48 h",,growth percent,93.5%
O=C(CCc1ccc(CNC(C(=O)O)C2CCCCC2)cn1)NO (stereo not shown),,,"healthy male humans, plasma","oral, 20 mg, single dose, geometric mean",,AUC(0-t),61.5 ng·h/mL
C[C@H](CN(C)Cc1ccccc1)NC(=O)c1ccc(-c2noc(C(F)(F)[18F])n2)cc1,,microPET,mouse,2 min after injection,,brain uptake,4.77 ± 0.24 %ID/cc
O=C([O-])CN1CCN(CC(=O)[O-])CCN(CC(=O)NCC2CCC(C(=O)NC(Cc3ccc4ccccc4c3)C(=O)NCCCCC(NC(=O)NC(CCC(=O)O)C(=O)O)C(=O)O)CC2)CCN(CC(=O)[O-])CC1.[44Sc+3] (stereo not shown),,"PET/CT dosimetry, OLINDA/EXM","human, salivary glands",,,residence time,0.026 h and 0.021 h and 0.01 h
COC(=O)C(c1ccccc1Cl)N1CCC2SC(=O)C=C2C1 (stereo not shown),,LC-MS/MS,human plasma extract,"2 ng/mL spiked, 8 h, room temperature",,measured concentration,2.1 ± 0.2 ng/mL
CCN(CC)c1ccc2c(-c3ccc(S(=O)(=O)NCCNC(=O)CN4CCN(CC(=O)[O-])CCN(CC(=O)O)CCN(CC(=O)[O-])CC4)cc3S(=O)(=O)[O-])c3ccc(=[N+](CC)CC)cc-3oc2c1.[64Cu+2],,microPET imaging,"athymic nude mice, U-87 MG glioma xenograft","250 µCi, 2 h post-injection",,tumour uptake,7.82 ± 1.06 %ID/g
CC(C)C[C@@H](NC(=O)[C@H](NC(=O)[C@H]1CCCN1)[C@H](C)O)C(=O)N[C@H](Cc1c[nH]cn1)C(=O)N[C@@H](C(=O)N[C@H](Cc1c[nH]cn1)C(=O)N[C@H](CC(N)=O)C(=O)N[C@H](CCCNC(=N)N)C(=O)N[C@H](CCCNC(=N)N)C(=O)N[C@H](CCCNC(=N)N)C(=O)N[C@H](CCCNC(=N)N)C(=O)N[C@H](CCCNC(=N)N)C(N)=O)[C@H](C)O,,,"Beagle dog, plasma","intravenous, 3 mg/kg, single dose",,Vss,0.66 L/kg
O=C(O)C1CN(Cc2ccc(-c3noc(-c4ccc(OCC[18F])c(C(F)(F)F)c4)n3)cc2)C1,,,"rat, liver","intravenous, 30 min",,tracer uptake,5.51 %ID/g
CC/C=C\C/C=C\C/C=C\C/C=C\C/C=C\CCCCOC(CC)C(=O)O (stereo not shown),,[14C] label,"male Wistar rat, subcutaneous fat","oral, 100 mg/kg, 8 h",,radioactivity concentration,15.4 µg equiv/g
CCOC(=O)c1[nH]c(C)c(/C=C/C2=[N+]3C(=C(c4cc(OC)cc(OC)c4)c4c(C)c(I)c(/C=C/c5c(C)[nH]c(C(=O)OCC)c5C)n4[B-]3(F)F)C(C)=C2I)c1C,,,dichloromethane,,,Stokes shift,665 cm⁻¹
CCC1(CC)C[C@@H](NC(=O)Nc2cccc3c(C)nccc23)c2cc(F)ccc2O1,,,"Trpv1+/+ mouse, abdomen","intraperitoneal, 10 mg/kg",reference: vehicle,decrease in body temperature,> 2 °C
CCCCN1C(=O)c2cccc3c(NCCCN4CCOCC4)ccc(c23)C1=O,,,water,pH 6,reference: fluorescein/0.1 N NaOH,fluorescence quantum yield,0.47
Cc1ccc(OCC(=O)O)cc1,,,"Sprague-Dawley rat, female, plasma","oral, 30 mg/kg/day of parent drug, day 1, 90-day repeated dosing",,Tmax,3 h
CC(C)(O)c1ncc([S@](N)(=O)=NC(=O)Nc2c3c(cc4c2CCC4)CCC3)s1,,,"healthy human volunteers, plasma","oral, 300 mg single dose, fasted, spray-dried dispersion",,dose-normalised Cmax,85.3 ng/mL/mg
CC(C)C[C@@H](CN1CCC[C@H]1C(N)=O)NC(=O)[C@H](Cc1c[nH]cn1)NC(=O)CNC(=O)[C@@H](NC(=O)[C@H](C)NC(=O)[C@H](Cc1c[nH]c2ccccc12)NC(=O)[C@H](CCC(N)=O)NC(=O)[C@@H](Cc1ccccc1)NC(=O)COCC(=O)Nc1ccc(CNC(=O)CN2CCN(CC(=O)O)CCN(CC(=O)O)CCN(CC(=O)O)CC2)cc1)C(C)C [gallium-68 labelled],,radio-HPLC,"mice, plasma",5 min post-injection,,intact compound,96.3% and > 95%
CCCC(CCC(=O)O)NC(=O)c1ccc(O)c(OC)c1 (stereo not shown),,LC-MS,"Sprague-Dawley rats, pooled sexes, plasma","oral, 200 mg/kg of parent drug, 1 h",reference: total peak area,metabolite peak area,0.26%
COC(=O)c1ccc(-c2cn(Cc3cc(Cl)ccc3O[11CH3])nn2)cc1,,PET/CT,"C57BL/6 mouse, heart",2 min,,peak uptake,2.32 %ID/cc
CC(=O)N[C@H](CC(=O)O)C(=O)N[C@H](Cc1c[nH]c2ccccc12)C(=O)N[C@H](Cc1ccccc1)C(=O)N[C@H](CCCCN)C(=O)N[C@H](C)C(=O)N[C@H](Cc1ccccc1)C(=O)N[C@H](Cc1ccc(O)cc1)C(=O)N[C@H](CC(=O)O)C(=O)N[C@H](CCCCN)C(=O)N[C@@H](C(=O)N[C@H](C)C(=O)N[C@H](CCC(=O)O)C(=O)N[C@H](CCCCN)C(=O)N[C@H](Cc1ccccc1)C(=O)N[C@H](CCCCN)C(=O)N[C@H](CCC(=O)O)C(=O)N[C@H](C)C(=O)N[C@H](Cc1ccccc1)C(N)=O)C(C)C,,,"statin-treated high-risk CHD men, plasma","oral, 300 mg daily, day 13, 0 to 8 h, mean, detected subjects only",,AUC(0-t),25.5 ng·h/mL
C[C@H](Oc1cc(-c2cnn(C3CCN(CC[18F])CC3)c2)cnc1N)c1c(Cl)ccc(F)c1Cl,,PET imaging,"nude mouse, kidney","iv, 10 min post injection",,tracer uptake,14.2 ± 4.7 %ID/cc
N=C(N)NCCC[C@H](NC(=O)[C@H](CCCNC(=N)N)NC(=O)[C@H](CCCNC(=N)N)NC(=O)[C@H](CCCNC(=N)N)NC(=O)[C@H](CCCNC(=N)N)NC(=O)[C@H](CCCNC(=N)N)NC(=O)[C@H](CCCNC(=N)N)NC(=O)[C@H](CCCNC(=N)N)NC(=O)[C@H](CCCNC(=N)N)NC(=O)[C@H](CCCNC(=N)N)NC(=O)[C@H](CCCNC(=N)N)NC(=O)[C@H](CCCNC(=N)N)NC(=O)[C@H](CCCNC(=N)N)NC(=O)[C@H](CCCNC(=N)N)NC(=O)[C@H](CCCNC(=N)N)NC(=O)[C@H](CCCNC(=N)N)NC(=O)[C@H](CCCNC(=N)N)NC(=O)[C@H](CCCNC(=N)N)NC(=O)[C@H](CCCNC(=N)N)NC(=O)[C@H](CCCNC(=N)N)NC(=O)c1ccc2c(c1)C(=O)OC21c2ccc(O)cc2Oc2cc(O)ccc21)C(=O)O,,,bovine cartilage explants,"24 h, added: 10 x PBS",,retained fraction,~83%
COc1c2c(cc3oc(COC4OC(CO)C(O)C(O)C4O)cc(=O)c13)OC(C(C)(C)O)C2 (stereo not shown),,,simulated intestinal fluid with pancreatin,"2 h, pH 6.8, 37 °C",,transformation rate,99.6%
O=C1c2sc(-c3ccc(N4CCC(CO)CC4)nc3F)nc2CCN1c1cccnc1,,PET imaging,"rhesus monkey, whole brain",,reference: peak over 60 min,brain washout ratio,15.5
NC(=O)[C@@H](CCCCNC(=O)CNC(=O)CCC(=O)NCCc1c[nH]cn1)NC(=O)[C@@H](CCC(=O)O)NC(=O)[C@@H](CCCCNC(=O)CNC(=O)CCC(=O)NCCc1c[nH]cn1)NC(=O)[C@@H](Cc1ccc(O)cc1)NC(=O)CN1CCN(CC(=O)O)CCN(CC(=O)O)CCN(CC(=O)O)CC1 [indium-111 labelled],,SPECT,human CEACAM5 tumour patients,"dose not given, 24 h, 25 µg IMP288, added: TF2 75 mg, 1 day interval",,muscle activity concentration,0.21 %ID/kg
CC(C)c1cnc(-c2cc(Cl)ccc2F)cc1Nc1ccncc1C(=O)NC(CO)CO,,,human patients,"oral, dose not given, worst grade 5",,patients with any TRAE,0%
N=C(N)NCCC[C@@H]1NC(=O)[C@H](Cc2c[nH]c3ccccc23)NC(=O)[C@@H](CC2CCCCC2)NC(=O)[C@@H]2CCCN2C(=O)[C@@H](NC(=O)CCc2ccccc2)CCCNC1=O,,two-compartment model,"C57BL/6J mouse, plasma brain","subcutaneous, 1 mg/kg single dose",,K21,0.61 h⁻¹
Cn1c(=O)oc2ccc(-c3ccc(CC(C#N)NC(=O)C4CNCCCO4)c(F)c3)cc21 (stereo not shown),,,"human, plasma","10 mg once daily, steady state, geometric mean",,trough concentration,18.7 ng/mL

# Some of these lines once more:
SMILES,tested on,assay,system,setting,how to read,quantity,value
O=C1c2sc(-c3ccc(N4CCC(CO)CC4)nc3F)nc2CCN1c1cccnc1,,PET imaging,"rhesus monkey, whole brain",,reference: peak over 60 min,brain washout ratio,15.5
CC(C)C[C@@H](NC(=O)[C@H](NC(=O)[C@H]1CCCN1)[C@H](C)O)C(=O)N[C@H](Cc1c[nH]cn1)C(=O)N[C@@H](C(=O)N[C@H](Cc1c[nH]cn1)C(=O)N[C@H](CC(N)=O)C(=O)N[C@H](CCCNC(=N)N)C(=O)N[C@H](CCCNC(=N)N)C(=O)N[C@H](CCCNC(=N)N)C(=O)N[C@H](CCCNC(=N)N)C(=O)N[C@H](CCCNC(=N)N)C(N)=O)[C@H](C)O,,,"Beagle dog, plasma","intravenous, 3 mg/kg, single dose",,Vss,0.66 L/kg
NC(=O)[C@@H](CCCCNC(=O)CNC(=O)CCC(=O)NCCc1c[nH]cn1)NC(=O)[C@@H](CCC(=O)O)NC(=O)[C@@H](CCCCNC(=O)CNC(=O)CCC(=O)NCCc1c[nH]cn1)NC(=O)[C@@H](Cc1ccc(O)cc1)NC(=O)CN1CCN(CC(=O)O)CCN(CC(=O)O)CCN(CC(=O)O)CC1 [indium-111 labelled],,SPECT,human CEACAM5 tumour patients,"dose not given, 24 h, 25 µg IMP288, added: TF2 75 mg, 1 day interval",,muscle activity concentration,0.21 %ID/kg
